Measured values pooled from the literature.
Parts stem from different laboratories: compare values within a part only.

Series 1 — technique: protein binding microarray; form: double-stranded DNA, one strand shown; sample: in vitro; concentration: not given; baseline: not given; direction: higher = stronger binding
Target: Histone acetyltransferase KAT6A, winged helix 1, GST fusion (KAT6A, Homo sapiens, UniProt Q92794, residues 1-85)
Setting: 8-mer, flanks averaged, mean of 2 arrays, mostly near background
Residues (chain): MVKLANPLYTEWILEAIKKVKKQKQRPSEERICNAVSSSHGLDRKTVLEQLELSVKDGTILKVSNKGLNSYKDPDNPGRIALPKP
| Oligonucleotide | E-score |
| --- | --- |
| ATCGTGCG | 0.255 |
| ATAGTACC | 0.0523 |
| GCTACTCA | -0.0478 |
| CACCTTGA | -0.179 |
| ATGAGATA | -0.113 |
| CAATTCAA | -0.278 |
| CACTCATG | -0.0163 |
| GAAAACCA | -0.108 |
| CACATCGG | 0.11 |
| TATTCTAA | -0.211 |
| AAATGGGT | -0.243 |
| CCTAGTAC | -0.0357 |
| CTGGGATA | -0.168 |
| ATCTCGGA | -0.049 |
| GGGCAGAA | -0.0789 |
| ACGCCTAG | 0.208 |
| CGCGGGTA | 0.384 |
| CTGGTCTA | -0.18 |

Series 2 — technique: RNA Bind-n-Seq; form: RNA; sample: in vitro; concentration: 200 nM; setting: whole 134-nt RNA, ends assumed; added: 150 mM LiCl; baseline: input library; direction: higher = stronger binding; all molecules: 7-deaza-guanosine replaces G
Target: Ras GTPase-activating protein-binding protein 1, full length (G3BP1, Homo sapiens, UniProt Q13283)
Sequence of UniProt Q13283 (whole entry, looked up): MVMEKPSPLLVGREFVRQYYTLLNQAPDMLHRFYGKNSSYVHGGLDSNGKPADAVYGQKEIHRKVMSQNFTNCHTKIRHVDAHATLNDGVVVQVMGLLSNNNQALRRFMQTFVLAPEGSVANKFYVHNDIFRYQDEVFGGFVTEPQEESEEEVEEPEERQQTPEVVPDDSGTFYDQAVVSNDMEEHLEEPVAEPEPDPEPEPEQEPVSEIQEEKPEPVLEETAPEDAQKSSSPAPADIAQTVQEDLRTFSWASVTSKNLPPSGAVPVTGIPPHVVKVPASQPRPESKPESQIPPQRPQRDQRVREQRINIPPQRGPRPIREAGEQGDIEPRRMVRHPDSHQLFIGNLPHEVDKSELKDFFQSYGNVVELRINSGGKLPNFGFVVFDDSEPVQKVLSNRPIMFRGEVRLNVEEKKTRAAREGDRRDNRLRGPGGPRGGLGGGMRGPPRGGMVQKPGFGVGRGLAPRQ
All sequences stand within: GGGAGUUCUACAGUCCGACGAUC … UGGAAUUCUCGGGUGUCAAGG
| Oligonucleotide | log2 enrichment |
| --- | --- |
| CACAGACAACACGCACCCACACAGACACAGAGGGAAGGGGUUGGGAUUGGGACAGGGUGCACAGCAGGGCGGGGUAGGACCCCAGCCCCU | 0.551 |
| UGUGCUACACAUCGUAUGUACCGAAUCGGGGAAAAAGGGGAAAAAAAGGGGAAAAAAAGGGGAAAGUAUUAUGUUACGCCGUUCGGAUCU | 0.752 |
| UCCUGUGCUACACAUCGUAUGUACCGAAUCGGGGCCCCCGGGCCCCCGGGGCCCCCGGGGAAAGUAUUAUGUUACGCCGUUCGGAUCUGC | -1.61 |
| AGUCCUGUGCUACACAUCGUAUGUACCGAAUCGGGGUUUUUUUGGGGAGGGGUGGGGAAAGUAUUAUGUUACGCCGUUCGGAUCUGCACU | -0.0324 |
| CCUCAAGUCCUGUGCUACACAUCGUAUGUACCGAAUCGGUGGUGGGGUGGGGAAAGUAUUAUGUUACGCCGUUCGGAUCUGCACUUCCAG | 0.523 |
| AAGUCCUGUGCUACACAUCGUAUGUACCGAAUCGGGGAAAGGGGAAAGGGGAAAGGGAAAGUAUUAUGUUACGCCGUUCGGAUCUGCACU | 0.821 |
| CCUCAAGUCCUGUGCUACACAUCGUAUGUACCGAAUCGGGUGGUGGGGUGGGAAAGUAUUAUGUUACGCCGUUCGGAUCUGCACUUCCAG | 0.304 |
| GUCCUGUGCUACACAUCGUAUGUACCGAAUCGGGUUUUUUUGGGUGGGUUUUUUUGGGAAAGUAUUAUGUUACGCCGUUCGGAUCUGCAC | 0.0635 |

Series 3 — technique: RNA Bind-n-Seq; form: RNA; sample: in vitro; concentration: not given; baseline: input RNA pool; direction: higher = stronger binding
Target: RING finger protein unkempt homolog, zinc fingers 1-6, GST-SBP tag (UNK, Homo sapiens, UniProt Q9C0B0, residues 30-357)
Sequence of UniProt Q9C0B0 (30-357, looked up): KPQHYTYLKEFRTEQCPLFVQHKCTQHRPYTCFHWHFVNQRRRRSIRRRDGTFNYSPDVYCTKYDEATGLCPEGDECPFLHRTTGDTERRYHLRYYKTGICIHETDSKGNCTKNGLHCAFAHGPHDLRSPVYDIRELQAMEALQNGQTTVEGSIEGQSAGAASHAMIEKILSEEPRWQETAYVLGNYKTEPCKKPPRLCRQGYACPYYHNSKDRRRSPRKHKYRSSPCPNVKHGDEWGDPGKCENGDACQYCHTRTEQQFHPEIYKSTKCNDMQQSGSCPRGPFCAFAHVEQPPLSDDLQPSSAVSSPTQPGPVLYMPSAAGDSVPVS
Setting: RNA with constant flanks, human and mouse sites, ends assumed
All sequences stand within: GGGAGUUCUACAGUCCGACGAUC … CAACAGAGGAUUGAGCAUCA
| Oligonucleotide | bound/input enrichment |
| --- | --- |
| UCAGUCUAGCUUUUAAUUAAGUUAUUUUGUAUAGCUUAAUUUGUAAAACAUUUUAUGUUUUUUAGAUGCUUUAUUAAAUACAUGGCCAAACCAAAUAACAUCUUUCAGUAAUUAUAGAAU | 9.15 ratio |
| UGGAGGGGAAUCCUAUUAUUUGGGCCGCCUGGAACAGGAAAGUCCUACUUAGCCAAAGCUGUAGCAACAGAAGCCAACAACUCAACAUUUUUUUCAAUAUCUUCCUCUGAUCUUGUUUCU | 1.82 ratio |
| GUCAUUCAUACCAUUCACACCUAAAGACUGAAUUUUAUCUGUUUUGAAAACGAACUUCUCUAGCUACACAGAAGUAACAAAAUAUGUUAGUCAGUUUUGUAUUUAGAAAUGUAUUGGUAG | 2.12 ratio |
| UCUGCCACCCAGCAGAAGAAAAACACCAAACUCUCUAGCAAAACCACUGCUAAGUUAUCCACUAGUGCUAAAAGAAUUCAGAAGGAGCUAGCUGAAAUAACCCUUGAUCCUCCUCCUAAU | 1.6 ratio |
| CUGAGGGACUGGACACCCCCCAGGCUCCCUGUCACAUUAGAGGCGCUGAGUGAAGAUGGUCAAAUAUGUGUGUAUUUUUUCAAAAACCUUUUAAGAAAAUACCACGUUCCCUUGUCAUGG | 0.354 ratio |
| GGCUUUAAGUCUGUUGGGAAGCCAUAAGCCCUUGAUUCUGCAGCAUGAAAACCUAGAAACCAUAGUUGACUUUAUAAAAAGCACGCUACCCAACCUUGGCUUGGUACAGAUGGAAAAGAC | 1.61 ratio |
| GUGGGAGAUUUGGUUCUCAUCAUCCUAGAUGAGCGGCACGACAAUUAUGUAUUGUUUACUGUUAGUCCUACUUUAUAUUUUCUGCACUCAGAGUCUCUUCCUGCCCUGGAUCUCAAACCA | 0.721 ratio |
| AUUUUCACAAGAAUGUUUGCAGAUCCUCAUGGCAAGGUGUUCAGCAUGUUCUUGGAGACUCUAGUAGAUUUCAUACAAGUCCACAAAGAUGAUCUUCAAGAUUGGUUGUUUGUUCUGCUG | 0.171 ratio |

Series 4 — technique: protein-binding microarray; form: double-stranded DNA, one strand shown; sample: in vitro; concentration: 2200 nM top; setting: 60-bp whole probe; added: salmon DNA 0.4 mg/ml; baseline: random background probes; direction: higher = stronger binding; all sequences stand within: GCCTAGCAC … GTCTTGATTCGCTTGACGCTGCTG
Target: Interferon regulatory factor 7, full length, phosphomimetic (IRF7, Homo sapiens, UniProt Q92985, residues 1-503, S471D/S472D/S475D/S476D/S477D/S483D/S484D/S487D)
Residues (chain): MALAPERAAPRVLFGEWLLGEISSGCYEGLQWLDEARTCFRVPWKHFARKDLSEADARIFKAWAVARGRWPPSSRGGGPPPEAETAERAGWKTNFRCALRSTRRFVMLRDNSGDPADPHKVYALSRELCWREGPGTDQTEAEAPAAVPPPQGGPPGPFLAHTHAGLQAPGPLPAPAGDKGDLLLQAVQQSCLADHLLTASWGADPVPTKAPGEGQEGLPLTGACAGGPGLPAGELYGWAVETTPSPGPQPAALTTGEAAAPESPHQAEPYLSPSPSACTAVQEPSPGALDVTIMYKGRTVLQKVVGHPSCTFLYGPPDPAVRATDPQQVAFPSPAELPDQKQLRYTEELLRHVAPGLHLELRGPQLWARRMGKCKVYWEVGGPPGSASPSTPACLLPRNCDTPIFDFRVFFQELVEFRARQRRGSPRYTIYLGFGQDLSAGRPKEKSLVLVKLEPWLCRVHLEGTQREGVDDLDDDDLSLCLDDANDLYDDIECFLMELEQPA
| Oligonucleotide | fitted relative affinity [z-score] |
| --- | --- |
| GACGATTCTAGTTTCGAGACGTGCTAG | 4.41 |
| TAGAACTTCTCCACTGAATGAGTGCTA | -0.0154 |
| GAAAGCCTGCTGCCAGTCTGGTGCTAG | -0.314 |
| GACGGACTGGGTTTCGGAACGTGCTAG | 1.58 |
| TTAGGTTGCGGGTTTCGGTTAGTGCTA | 3.85 |
| GACGGTTTCTACACTGGGGACGTGCTA | 1.28 |
| TTATGTCTCGGACTGGGTTAGTGCTAG | 0.359 |
| TCATTCCTCTTTCTCTGACTGTGCTAG | 2.92 |
| TCTCTTTTTGCTTTCTTTTAGTGCTAG | 3.97 |
| GACGGTCTACTTCTCCTGACGTGCTAG | 1.03 |
| GACGGACTGGACTATCGGCACGTGCTA | -0.724 |
| TTCGAACTGAGTCTCGATTAGTGCTAG | 0.152 |
| GACGGACTCGGTTTCGGGACGTGCTAG | 4.21 |
| TTAGGATTGGGTCTCGGTTAGTGCTAG | 0.148 |
| CACGGACTGGGTCTCGGGACGTGCTAG | -0.853 |
| CCACATATGCTTTTTAGAAAGTGCTAG | 1.35 |
| GACGGACTGGGGACTGCGGACGTGCTA | -0.988 |
| TTAGATTTCGGGACTGGATTGGTGCTA | 1.08 |
| TCAATTCCAGGGTTTTATACTGTGCTA | 0.408 |

Excerpt of the above (series 1):
| Oligonucleotide | E-score |
| --- | --- |
| AAATGGGT | -0.243 |
| TATTCTAA | -0.211 |
| GCTACTCA | -0.0478 |
| CTGGGATA | -0.168 |
| CAATTCAA | -0.278 |
| ATAGTACC | 0.0523 |
